# Experimental data from different studies.
# Every numbered part comes from another study and shows a few of its results, in no order.

# Study 1
# Target: RING finger protein unkempt homolog, zinc fingers 1-6, GST-SBP tag (UNK, Homo sapiens, UniProt Q9C0B0, residues 30-357)
# Sequence of UniProt Q9C0B0 (30-357, looked up): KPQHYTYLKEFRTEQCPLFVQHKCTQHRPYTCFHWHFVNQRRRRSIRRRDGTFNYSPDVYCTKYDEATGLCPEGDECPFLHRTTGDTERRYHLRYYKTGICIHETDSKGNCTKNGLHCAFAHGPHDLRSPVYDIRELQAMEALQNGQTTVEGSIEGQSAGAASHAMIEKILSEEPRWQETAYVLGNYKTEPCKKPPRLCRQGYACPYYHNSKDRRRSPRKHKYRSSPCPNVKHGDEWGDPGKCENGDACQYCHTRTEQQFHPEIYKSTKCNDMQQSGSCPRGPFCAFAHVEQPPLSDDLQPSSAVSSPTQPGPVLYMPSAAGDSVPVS
# Technique: RNA Bind-n-Seq
# Form: RNA
# Medium: in vitro
# Tested at: not given
# Notes: RNA with constant flanks, human-mouse chimeric sites, ends assumed
# Baseline: input RNA pool
# Direction: higher = stronger binding
Oligonucleotide,bound/input enrichment [ratio]
GGGAGUUCUACAGUCCGACGAUCAGAUUCCCCCUCCUGAGACCUCCUCCGAAGUUGGAGUCUCUUACAGAUGGUUCAUCUCCUGUUAGCGUUUUGGUCUGGACCACCCAGCCUUGGACAAUUCCCGCCAACCAGGCAAUUUGCCAACAGAGGAUUGAGCAUCA,0.37
GGGAGUUCUACAGUCCGACGAUCCAUGUAUCUGCAGUACUUGAUGUGGACUACUCUCCCACUGGGAAGGAAUUUGUGUCUGCCAGCUUUGAUAAAUCUAUUAGAAUCUUUCCUGUGGACAAGAGCCGAAGCAGGGAAGUGUAUCAACAGAGGAUUGAGCAUCA,0.501
GGGAGUUCUACAGUCCGACGAUCGCAUAUGGUUAUCGAGGAAAGGACUGUAGAGCGAAUGUAUACCUGCUUCCCACAGGGGAGAUAGUUUAUUUUAUCGCAUCAGUAGUAGUCCUGUUUAAUUAUGAGGAGAGGACUCAGCGACAACAGAGGAUUGAGCAUCA,3.02

# Study 2
# Target: Histone acetyltransferase KAT6A, winged helix 2, GST fusion (KAT6A, Homo sapiens, UniProt Q92794, residues 85-181)
# Technique: protein binding microarray
# Form: double-stranded DNA, one strand shown
# Medium: in vitro
# Tested at: not given
# Notes: 8-mer, flanks averaged, mean of 2 arrays, mostly near background
# Baseline: not given
# Direction: higher = stronger binding
# Target sequence (chain): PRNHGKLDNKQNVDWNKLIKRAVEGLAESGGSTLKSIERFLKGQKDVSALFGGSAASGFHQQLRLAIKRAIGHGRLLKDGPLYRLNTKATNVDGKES
Oligonucleotide,E-score
ATATGACC,-0.118
CTTTCCAA,0.0047
TGCTCAAA,0.124
TCCGGGAA,0.139
AACGATGC,-0.0173
GTCCTGTA,-0.251

# Study 3
# Target: RNA binding protein fox-1 homolog 2, RRM domain, GST-SBP tag (RBFOX2, Homo sapiens, UniProt O43251-10, residues 100-194)
# Technique: RNA Bind-n-Seq
# Form: RNA
# Medium: in vitro
# Tested at: 365 nM
# Notes: natural RNA segment, single round, ends assumed
# Baseline: no-protein control
# Direction: higher = stronger binding
# Shared flanks, not repeated: GGGAGUUCUACAGUCCGACGAUC … UGGAAUUCUCGGGUGCCAA
# Target sequence (chain): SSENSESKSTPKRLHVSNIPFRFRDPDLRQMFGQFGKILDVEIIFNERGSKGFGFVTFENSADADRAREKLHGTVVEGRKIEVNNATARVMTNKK
Oligonucleotide,RBNS enrichment (R)
AUUCUAAAUUUAAAAAAUCUUCAAAUCUGAAUAUACCGCAAAUGUCAUGAGAAGUUUGAUUCAGUAACUUGUGAUGGAGGAUUCUUUGGUAUCUUACUGUUUGGUUAAGG,1.15
CAGGAAACCCUGGCUUGCUUGCCGAGCCUAAUGAAAGGGAAAGUCAGCUUUCAGAGCCAGUGAAGGAGCCACGUGAAUGGCCCUAGAACUGUGCCUAGUUCCUGUGGCCA,0.233
GUUCCAGAAGGGGAGAAGCAUAGAGGGCCUGUGAGCUCACGUGUGUUCUUUGUCAUAGGGGUGAAAAACUAACUUCAAGUGUCCCUUGUUUGAAAUAAACUUAGCAGAGU,0.867
UAUCCUGCACUUAAACUGAGUUUAAACUCUUUCAGCAGAUCUCCCUUCGUGGUAUCUUCACAGAUCACAAGUAAAUGUGAAUCUGAAAGAUAGCAUCCACACAAAAUUCU,0.319
UGAGGUGGUUUUGGGCUGUGGUUUCCAGUCUGACCCAGGAGGAACUGGCUAGGCUGCUUCAGUUUACAACAGGCUCUUCUCAGCUCCCACCUGGAGGAUUUGCUGCCCUC,0.259
ACUCAUGGUCAAUACCCAGCCAGUCUUCUUACAGGGACUUGAGAGGCUCAGGCUACUAUGACCAAUAGAAGUGAAAGUCUUGGUCAUAAUUUGGGGUGACAUGCUGUCAA,0.834

# Other studies, line by line
Molecule,target,test,system,setting,how to read,quantity,value
"PhoQ, residues 284 288 289 292 302 303 SLANIV","PhoP, residues 12 14 15 18 19 NFCKL (Escherichia coli, UniProt P23836)","Sort-seq, measured: YFP reporter",E. coli,"PhoQ-PhoP variant library, with: 10 µM Mg2+","baseline: high Mg2+ state, higher = stronger signaling",fold induction,10.8

# A few entries again (study 1):
Oligonucleotide,bound/input enrichment [ratio]
GGGAGUUCUACAGUCCGACGAUCCAUGUAUCUGCAGUACUUGAUGUGGACUACUCUCCCACUGGGAAGGAAUUUGUGUCUGCCAGCUUUGAUAAAUCUAUUAGAAUCUUUCCUGUGGACAAGAGCCGAAGCAGGGAAGUGUAUCAACAGAGGAUUGAGCAUCA,0.501
GGGAGUUCUACAGUCCGACGAUCGCAUAUGGUUAUCGAGGAAAGGACUGUAGAGCGAAUGUAUACCUGCUUCCCACAGGGGAGAUAGUUUAUUUUAUCGCAUCAGUAGUAGUCCUGUUUAAUUAUGAGGAGAGGACUCAGCGACAACAGAGGAUUGAGCAUCA,3.02
